Published values gathered from unrelated publications.
Every numbered part comes from another study and shows a few of its results, in no order. Positions count from the first letter of the parent shown.

Set 1
Target: ABI1, truncated, D143A, DHFR fusion (Arabidopsis thaliana)
Method: DHFR PCA, deep sequencing
Matrix: yeast
Setting: methotrexate growth selection, single substitutions
Together with: (+)-ABA 200 µM
Baseline: wild-type fitted maximum
Reading: higher = stronger binding
Starting sequence: PYL1, truncated, DHFR fusion (Arabidopsis thaliana); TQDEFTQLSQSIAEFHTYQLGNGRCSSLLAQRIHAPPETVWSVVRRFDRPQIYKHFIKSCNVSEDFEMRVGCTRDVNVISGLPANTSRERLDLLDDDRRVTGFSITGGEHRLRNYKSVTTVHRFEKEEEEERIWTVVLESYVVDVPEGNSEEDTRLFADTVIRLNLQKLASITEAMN; partner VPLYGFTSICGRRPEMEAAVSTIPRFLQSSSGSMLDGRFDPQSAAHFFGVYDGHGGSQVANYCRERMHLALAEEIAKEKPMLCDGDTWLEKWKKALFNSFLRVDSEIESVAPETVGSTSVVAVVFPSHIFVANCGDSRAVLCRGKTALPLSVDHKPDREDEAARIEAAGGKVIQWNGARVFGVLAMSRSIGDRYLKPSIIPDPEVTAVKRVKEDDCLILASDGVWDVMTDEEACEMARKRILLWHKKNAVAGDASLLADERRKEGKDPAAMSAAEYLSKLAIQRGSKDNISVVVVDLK
Substitution | relative binding score
W134K | 93.1%
H122R | 27.9%
L8T | 78.6%
C25Y | 26.7%
E139R | 5.6%
K116M | 67%
N177P | 89.6%
F47I | -5.11%
C60H | 3.56%
S11A | 90.7%
L91C | 86.2%
R99G | 77.5%
V136S | 39.8%
I133D | 116%
L93K | 91.9%
E130N | 115%
S150D | 91.4%
H122K | 15%
Q2G | 90.4%
L91S | 4.3%

Set 2
Target: Ras GTPase-activating protein-binding protein 1, full length (G3BP1, Homo sapiens, UniProt Q13283)
Chain of UniProt Q13283 (whole entry, looked up): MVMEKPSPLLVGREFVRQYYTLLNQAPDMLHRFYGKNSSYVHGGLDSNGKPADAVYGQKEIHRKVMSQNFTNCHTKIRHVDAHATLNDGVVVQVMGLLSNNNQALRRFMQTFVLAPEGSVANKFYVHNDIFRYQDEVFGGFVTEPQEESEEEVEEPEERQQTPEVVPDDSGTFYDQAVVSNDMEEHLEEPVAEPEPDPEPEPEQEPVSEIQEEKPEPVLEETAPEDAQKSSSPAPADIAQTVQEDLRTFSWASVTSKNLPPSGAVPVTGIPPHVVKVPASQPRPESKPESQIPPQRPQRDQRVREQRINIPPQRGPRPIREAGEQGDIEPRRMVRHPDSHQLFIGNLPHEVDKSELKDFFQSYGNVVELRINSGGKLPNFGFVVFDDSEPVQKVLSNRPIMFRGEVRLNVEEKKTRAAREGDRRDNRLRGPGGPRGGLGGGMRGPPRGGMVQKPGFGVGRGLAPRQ
Method: RNA Bind-n-Seq
Molecule type: RNA
Matrix: in vitro
Concentration: 200 nM
Setting: whole 134-nt RNA, ends assumed
Together with: 150 mM LiCl
Baseline: input library
Reading: higher = stronger binding
Each molecule: 7-deaza-guanosine replaces G
Shared flanks, not repeated: GGGAGUUCUACAGUCCGACGAUC … UGGAAUUCUCGGGUGUCAAGG
Sequence | log2 enrichment
UAACUUUAGAGGAGGAUCUGAUGGAUAUGGCAGUGGACGUGGAUUUGGGGAUGGCUAUAAUGGGUAUGGAGGAGGACCUAGAGGUGGCAA | -0.175
CAAGUCCUGUGCUACACAUCGUAUGUACCGAAUCGGGGCCCCGGCCCCGGCCCCGGAAAGUAUUAUGUUACGCCGUUCGGAUCUGCACUU | -1.81
CACAGACAACACGCACCCACACAGACACAGAGGGAAGGGUUUGGGAUGGGGACAGGGUGCACAGCAGGGCGGGGUAGGACCCCAGCCCCU | -1.49
GCAGGAAGUCAAAACAAAUGGAAAUGCUUCGGAUAGUGGCAGGGGUGGGGGUUGCUAAGGAAAGGGUGGGAUGGGAGUGGGUAAAGAGUU | 0.0171
AAGUCCUGUGCUACACAUCGUAUGUACCGAAUCGGGGCCCGGGGCCCGGGGCCCGGAAAGUAUUAUGUUACGCCGUUCGGAUCUGCACUU | -0.72
UCCUGUGCUACACAUCGUAUGUACCGAAUCGGGUUUUUUGGGUUUUUUGGGUUUUUUGGAAAGUAUUAUGUUACGCCGUUCGGAUCUGCA | 0.595
UGCCCAGCUCAUGCUGGACCACCUGAAGAACAGUGCUCCCAGCAAGCGAGAGAUUGCCCAGCUCAAGAACCAGGUAUCCACAGAGAGCAC | 0.148
ACCAUGCAGGUGGGCAUCUUGGGGAAGUGGGGCAAGGGGGGGAUAGGGAGGGGGGUAACACUUUGGGAACAGGUGGUCCCAGGUCGUUUC | 0.169
UUUGAUGACAGUCUGCAGGAGCUGCCUGGUGAAGUACCUGGAGGAGAACAACACCUGCCCCACCUGCAGGAUUGUGAUCCACCAGAGCCA | -1.35
UCCUCAAGUCCUGUGCUACACAUCGUAUGUACCGAAUCGGGGCGGCGGCGGGAAAGUAUUAUGUUACGCCGUUCGGAUCUGCACUUCCAG | 0.669
AGUCCUGUGCUACACAUCGUAUGUACCGAAUCAAACCCCCAAACCCCCAAAUUUAAAAAAGUAUUAUGUUACGCCGUUCGGAUCUGCACU | 0.882

Set 3
Target: CREB3, bZIP domain (human)
Method: DHFR protein complementation
Matrix: yeast
Setting: single substitutions, most at no-binding floor
Baseline: wild-type JUN-FOS pair
Reading: higher = stronger binding
Starting sequence: JUN, bZIP domain (human); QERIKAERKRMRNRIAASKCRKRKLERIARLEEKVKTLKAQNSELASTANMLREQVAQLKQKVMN; partner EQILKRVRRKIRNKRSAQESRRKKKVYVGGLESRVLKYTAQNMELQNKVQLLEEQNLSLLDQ
Substitution | binding fitness [natural log]
S47L | -1.48
K36S | -1.29
Q41D | -1.34
K34L | -1.39
E44H | -1.49
Q41M | -1.47
V35L | -1.45
K36W | -1.47
E54L | -1.32
R30D | -1.52
K34R | -1.48
L38I | -1.23
L52I | -1.39
V56Y | -1.48
R53T | -1.39
K36G | -1.45
A46L | -1.41
L31C | -1.45
A40K | -1.49
V35G | -1.47

Set 4
Target: CCNE2, cyclin fold, Cln2 fusion (human)
Method: yeast growth competition, sequencing
Matrix: yeast
Setting: weak parent motif
Baseline: not given
Reading: higher = stronger binding
Starting sequence: CDC6 docking peptide (human); TLKGRRLVFDNQL
Substitution | normalised enrichment score
TLKGRRLVFFNQL [D10F] | 1.05
TTKGRRLVFDNQL [L2T] | 0.441
TLKGRRLVFYNQL [D10Y] | 1.02
TLKGKRLVFDNQL [R5K] | -0.0345
TLKGWRLVFDNQL [R5W] | -0.0342
WLKGRRLVFDNQL [T1W] | 1.82
TIKGRRLVFDNQL [L2I] | 0.514
TLKGRRLVFINQL [D10I] | 0.58
TLQGRRLVFDNQL [K3Q] | 0.531
TLKGRREVFDNQL [L7E] | 0.289
VLKGRRLVFDNQL [T1V] | 0.871
TLKARRLVFDNQL [G4A] | 0.308
PLKGRRLVFDNQL [T1P] | 0.857
TLYGRRLVFDNQL [K3Y] | 0.89
TLKGRRLVFDNWL [Q12W] | 1.04
TLKGDRLVFDNQL [R5D] | -0.592
TLKGRRLVFNNQL [D10N] | 1.25
TLKGRRLVFDNML [Q12M] | 0.651
TLKGRRRVFDNQL [L7R] | 0.654
TLKGRRLVFDNYL [Q12Y] | 0.899
TLKGRRLRFDNQL [V8R] | 1.28
TLKGRRLVFPNQL [D10P] | -0.256
TLKMRRLVFDNQL [G4M] | 1.02
TLKGRRLVFDNFL [Q12F] | 0.944
TLKGRRLVWDNQL [F9W] | 0.605

Set 5
Target: Interferon regulatory factor 7, full length, phosphomimetic (IRF7, Homo sapiens, UniProt Q92985, residues 1-503, S101K/S471D/S472D/S475D/S476D/S477D/S483D/S484D/S487D)
Method: protein-binding microarray
Molecule type: double-stranded DNA, one strand shown
Matrix: in vitro
Concentration: 250 nM
Setting: 60-bp whole probe
Together with: salmon DNA 0.4 mg/ml
Baseline: random background probes
Reading: higher = stronger binding
Shared flanks, not repeated: GCCTAGCAC … GTCTTGATTCGCTTGACGCTGCTG
Target sequence (chain): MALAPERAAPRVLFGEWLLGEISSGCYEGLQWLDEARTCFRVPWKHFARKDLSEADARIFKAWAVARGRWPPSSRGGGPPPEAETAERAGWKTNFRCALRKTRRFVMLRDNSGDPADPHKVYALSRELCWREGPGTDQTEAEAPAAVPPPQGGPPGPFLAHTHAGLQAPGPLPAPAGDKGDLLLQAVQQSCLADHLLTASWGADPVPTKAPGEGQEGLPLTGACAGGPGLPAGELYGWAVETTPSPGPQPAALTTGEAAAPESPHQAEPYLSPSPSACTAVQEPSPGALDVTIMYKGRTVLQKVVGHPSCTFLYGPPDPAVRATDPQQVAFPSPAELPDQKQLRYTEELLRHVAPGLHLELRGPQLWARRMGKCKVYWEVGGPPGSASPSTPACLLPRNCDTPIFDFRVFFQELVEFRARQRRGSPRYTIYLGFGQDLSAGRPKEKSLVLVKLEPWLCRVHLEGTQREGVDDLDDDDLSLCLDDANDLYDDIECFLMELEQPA
Sequence | log fluorescence [z-score]
TTAGGTTTCGACATTGGGTTAGTGCTA | 6.66
AACCGCACAGAACTAAAACAGTGCTAG | 0.0788
GACGGACTGGGGTAACGGGACGTGCTA | -0.662
TTAGGTTTCGACACAGGGTTAGTGCTA | 3.8
TCATGCCTCATCTTGCAGACTGTGCTA | 0.441
GACGGTCTTGGTCTCGGGACGTGCTAG | 0.235
TTTCCTATGTCATTTACATTGTGCTAG | 2.99
CTTTGTTTTTTTCTATATGCGTGCTAG | 1.73
GATGATTTCGGGTTTCGAGACGTGCTA | 4.71
TGATTTTGGTCTTTCTGTTTGTGCTAG | 0.979
ACCCATTGAGATTTTCATTATGTGCTA | -0.0959
TATCTTATGATATATATAATAGTGCTA | 0.606
TGAGGACTGCTTCTCCTTTAGTGCTAG | 0.135
TTAGGACTGCGTTTCCTTTAGTGCTAG | 0.538
GACGGAATCCTACTGCTGACGTGCTAG | -0.535
TTAGGTCACCTACTGCTTTAGTGCTAG | -0.036
GACGATCTCAGTATCAAGACGTGCTAG | -0.0395
GACGATCTCAGTATGGAGACGTGCTAG | -0.34
TTCTCTATTGCTTTCTCTTTGTGCTAG | 1.82
TCCATCATTGCTTTCTCTTTGTGCTAG | 0.666
GACGAACTGAGAATCGAGACGTGCTAG | 0.187
GACGAACTGAGACTGGAGATGTGCTAG | -0.145
GACGGTATCGGTTACGGGACGTGCTAG | 0.827
GACGGACTGCGACTGGGGACGTGCTAG | -0.48
TTTGGTATCGGGTTTCGGTTAGTGCTA | 7.63

Single results of other studies
Substance | target | assay | test system | conditions | scale | measurement | result
PhoQ, residues 284 288 289 292 302 303 GANMMA | PhoP, residues 12 14 15 18 19 LWHVM (Escherichia coli, UniProt P23836) | Sort-seq, refers to: YFP reporter | E. coli | PhoQ-PhoP variant library, together with: 10 µM Mg2+ | baseline: high Mg2+ state, higher = stronger signaling | fold induction | 4.06
